Measurements of several laboratories.
A part holds a random share of what one study measured.
Chain of UniProt Q02750 (whole entry, looked up): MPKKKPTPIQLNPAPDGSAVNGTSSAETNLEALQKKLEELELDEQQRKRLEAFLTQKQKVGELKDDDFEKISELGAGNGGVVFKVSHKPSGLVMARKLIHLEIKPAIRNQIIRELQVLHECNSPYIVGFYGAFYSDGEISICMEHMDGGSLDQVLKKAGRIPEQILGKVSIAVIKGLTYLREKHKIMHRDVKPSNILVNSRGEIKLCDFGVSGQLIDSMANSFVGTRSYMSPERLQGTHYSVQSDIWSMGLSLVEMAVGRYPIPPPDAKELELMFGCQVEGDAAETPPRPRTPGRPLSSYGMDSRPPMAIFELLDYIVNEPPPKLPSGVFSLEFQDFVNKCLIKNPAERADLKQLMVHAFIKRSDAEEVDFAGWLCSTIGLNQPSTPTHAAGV
Chain of UniProt O14730 (whole entry, looked up): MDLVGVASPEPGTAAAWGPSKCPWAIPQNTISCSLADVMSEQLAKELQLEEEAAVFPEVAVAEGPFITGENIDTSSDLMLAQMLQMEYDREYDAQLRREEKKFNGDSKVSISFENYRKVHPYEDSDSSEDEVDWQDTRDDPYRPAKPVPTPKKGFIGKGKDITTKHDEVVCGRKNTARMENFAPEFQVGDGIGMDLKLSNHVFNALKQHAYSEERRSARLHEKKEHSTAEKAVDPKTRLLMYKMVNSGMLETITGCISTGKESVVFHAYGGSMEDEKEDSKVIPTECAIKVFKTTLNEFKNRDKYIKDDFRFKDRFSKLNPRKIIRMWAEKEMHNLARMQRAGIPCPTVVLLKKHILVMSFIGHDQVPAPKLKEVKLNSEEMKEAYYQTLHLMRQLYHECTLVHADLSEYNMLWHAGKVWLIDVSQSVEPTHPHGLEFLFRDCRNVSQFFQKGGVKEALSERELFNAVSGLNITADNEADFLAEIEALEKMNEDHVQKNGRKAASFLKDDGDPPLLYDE
Chain of UniProt Q16659 (whole entry, looked up): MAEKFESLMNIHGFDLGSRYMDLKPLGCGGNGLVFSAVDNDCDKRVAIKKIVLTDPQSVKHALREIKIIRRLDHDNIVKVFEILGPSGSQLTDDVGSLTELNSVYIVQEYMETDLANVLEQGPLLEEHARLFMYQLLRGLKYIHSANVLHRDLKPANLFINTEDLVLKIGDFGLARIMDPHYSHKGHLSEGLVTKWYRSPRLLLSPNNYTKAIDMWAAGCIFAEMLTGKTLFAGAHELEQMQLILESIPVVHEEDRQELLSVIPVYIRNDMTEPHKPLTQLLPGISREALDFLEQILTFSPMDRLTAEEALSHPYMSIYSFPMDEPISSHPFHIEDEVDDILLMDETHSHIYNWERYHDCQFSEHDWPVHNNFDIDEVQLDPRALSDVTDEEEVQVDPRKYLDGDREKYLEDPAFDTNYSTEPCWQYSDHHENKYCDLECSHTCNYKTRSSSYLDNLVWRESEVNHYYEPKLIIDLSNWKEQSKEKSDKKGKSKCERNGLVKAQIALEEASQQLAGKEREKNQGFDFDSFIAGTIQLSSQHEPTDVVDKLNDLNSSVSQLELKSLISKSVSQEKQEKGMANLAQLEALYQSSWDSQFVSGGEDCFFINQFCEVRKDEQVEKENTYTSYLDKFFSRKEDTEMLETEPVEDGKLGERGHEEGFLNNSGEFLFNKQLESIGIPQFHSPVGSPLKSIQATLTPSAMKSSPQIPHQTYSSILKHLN
Chain of UniProt P33981 (whole entry, looked up): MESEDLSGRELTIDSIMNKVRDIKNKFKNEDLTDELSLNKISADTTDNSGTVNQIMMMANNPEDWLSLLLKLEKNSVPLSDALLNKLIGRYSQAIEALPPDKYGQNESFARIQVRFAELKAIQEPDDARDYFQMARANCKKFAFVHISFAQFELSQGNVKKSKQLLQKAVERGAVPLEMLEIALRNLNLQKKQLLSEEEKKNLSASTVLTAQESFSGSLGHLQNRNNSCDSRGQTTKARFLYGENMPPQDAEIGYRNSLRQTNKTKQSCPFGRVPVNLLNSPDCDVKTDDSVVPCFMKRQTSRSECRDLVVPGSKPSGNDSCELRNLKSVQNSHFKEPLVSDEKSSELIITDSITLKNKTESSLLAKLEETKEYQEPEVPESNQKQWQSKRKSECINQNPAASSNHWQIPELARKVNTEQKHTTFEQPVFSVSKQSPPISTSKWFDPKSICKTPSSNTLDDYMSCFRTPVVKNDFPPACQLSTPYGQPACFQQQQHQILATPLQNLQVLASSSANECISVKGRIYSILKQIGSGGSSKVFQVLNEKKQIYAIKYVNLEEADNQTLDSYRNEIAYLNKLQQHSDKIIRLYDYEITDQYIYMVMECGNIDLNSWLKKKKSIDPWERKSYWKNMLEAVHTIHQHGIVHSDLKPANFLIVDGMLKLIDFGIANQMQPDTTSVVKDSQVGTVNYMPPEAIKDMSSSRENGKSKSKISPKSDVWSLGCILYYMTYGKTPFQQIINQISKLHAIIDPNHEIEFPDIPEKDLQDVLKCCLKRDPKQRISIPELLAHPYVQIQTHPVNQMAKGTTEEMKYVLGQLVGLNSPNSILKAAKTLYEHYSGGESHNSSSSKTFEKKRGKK
Chain of UniProt Q13873 (whole entry, looked up): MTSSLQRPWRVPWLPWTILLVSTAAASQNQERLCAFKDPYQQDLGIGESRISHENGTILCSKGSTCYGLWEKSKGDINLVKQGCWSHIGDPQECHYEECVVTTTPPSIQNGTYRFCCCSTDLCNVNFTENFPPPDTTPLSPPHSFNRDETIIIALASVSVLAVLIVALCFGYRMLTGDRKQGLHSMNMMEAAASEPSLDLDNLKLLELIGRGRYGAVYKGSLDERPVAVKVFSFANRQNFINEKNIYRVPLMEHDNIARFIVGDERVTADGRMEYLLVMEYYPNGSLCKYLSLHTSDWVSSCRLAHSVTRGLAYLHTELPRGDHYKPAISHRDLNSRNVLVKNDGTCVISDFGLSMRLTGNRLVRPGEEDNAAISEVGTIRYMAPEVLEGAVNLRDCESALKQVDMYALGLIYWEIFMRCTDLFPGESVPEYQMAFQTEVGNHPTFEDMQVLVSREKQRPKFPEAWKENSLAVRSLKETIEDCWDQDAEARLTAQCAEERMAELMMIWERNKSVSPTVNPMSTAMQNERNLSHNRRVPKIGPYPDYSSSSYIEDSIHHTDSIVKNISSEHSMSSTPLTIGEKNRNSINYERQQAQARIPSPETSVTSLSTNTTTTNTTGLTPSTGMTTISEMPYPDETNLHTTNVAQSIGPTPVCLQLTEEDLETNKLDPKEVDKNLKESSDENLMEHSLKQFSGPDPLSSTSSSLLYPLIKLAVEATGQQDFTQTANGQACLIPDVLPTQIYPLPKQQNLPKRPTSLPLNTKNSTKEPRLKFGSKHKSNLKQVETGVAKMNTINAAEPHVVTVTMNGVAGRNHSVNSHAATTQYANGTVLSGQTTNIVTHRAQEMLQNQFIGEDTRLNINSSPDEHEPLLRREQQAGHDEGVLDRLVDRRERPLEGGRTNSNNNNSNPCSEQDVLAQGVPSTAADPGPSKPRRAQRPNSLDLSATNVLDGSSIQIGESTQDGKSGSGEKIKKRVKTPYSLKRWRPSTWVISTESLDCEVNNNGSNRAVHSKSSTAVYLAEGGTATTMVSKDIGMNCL
Chain of UniProt Q8N752 (whole entry, looked up): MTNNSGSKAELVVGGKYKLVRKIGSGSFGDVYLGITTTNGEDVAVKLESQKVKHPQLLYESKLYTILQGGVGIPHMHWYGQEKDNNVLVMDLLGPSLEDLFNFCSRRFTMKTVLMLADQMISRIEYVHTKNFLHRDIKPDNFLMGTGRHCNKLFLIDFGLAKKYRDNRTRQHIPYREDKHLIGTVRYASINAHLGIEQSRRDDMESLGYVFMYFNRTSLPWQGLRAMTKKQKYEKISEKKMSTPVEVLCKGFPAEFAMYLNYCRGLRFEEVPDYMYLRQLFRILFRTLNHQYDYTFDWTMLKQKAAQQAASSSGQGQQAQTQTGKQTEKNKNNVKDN

Series 1 — concentration: 1 µM
Structure (SMILES): CN([C@@H]1CCc2c(CC(=O)O)c3ccccc3n2C1)S(=O)(=O)c1ccc(F)cc1
target	read-out	technique	remaining binding [%]
Casein kinase I isoform alpha-like (CSNK1A1L, Homo sapiens, UniProt Q8N752)	cell-free assay	competition with immobilised ligand	100
Dual specificity mitogen-activated protein kinase kinase 1 (MAP2K1, Homo sapiens, UniProt Q02750)	cell-free assay	competition with immobilised ligand	100
Tyrosine-protein kinase HCK (HCK, Homo sapiens, UniProt P08631)	cell-free assay	competition with immobilised ligand	95
Receptor-type tyrosine-protein kinase FLT3 (FLT3, Homo sapiens, UniProt P36888, D835H)	cell-free assay	competition with immobilised ligand	91
Mitogen-activated protein kinase kinase kinase 19 (MAP3K19, Homo sapiens, UniProt Q56UN5)	cell-free assay	competition with immobilised ligand	100
AP2-associated protein kinase 1 (AAK1, Homo sapiens, UniProt Q2M2I8)	binding		100
Epidermal growth factor receptor (EGFR, Homo sapiens, UniProt P00533, del747-750/T751S)	cell-free assay	competition with immobilised ligand	100
Bone morphogenetic protein receptor type-2 (BMPR2, Homo sapiens, UniProt Q13873)	cell-free assay	competition with immobilised ligand	100

Series 2 — read-out: enzyme activity; action: inhibitor; concentration: 0.5 µM; reference: control
Target: Serine/threonine-protein kinase MARK1 (MARK1, Homo sapiens, UniProt Q9P0L2)
Chain of UniProt Q9P0L2 (whole entry, looked up): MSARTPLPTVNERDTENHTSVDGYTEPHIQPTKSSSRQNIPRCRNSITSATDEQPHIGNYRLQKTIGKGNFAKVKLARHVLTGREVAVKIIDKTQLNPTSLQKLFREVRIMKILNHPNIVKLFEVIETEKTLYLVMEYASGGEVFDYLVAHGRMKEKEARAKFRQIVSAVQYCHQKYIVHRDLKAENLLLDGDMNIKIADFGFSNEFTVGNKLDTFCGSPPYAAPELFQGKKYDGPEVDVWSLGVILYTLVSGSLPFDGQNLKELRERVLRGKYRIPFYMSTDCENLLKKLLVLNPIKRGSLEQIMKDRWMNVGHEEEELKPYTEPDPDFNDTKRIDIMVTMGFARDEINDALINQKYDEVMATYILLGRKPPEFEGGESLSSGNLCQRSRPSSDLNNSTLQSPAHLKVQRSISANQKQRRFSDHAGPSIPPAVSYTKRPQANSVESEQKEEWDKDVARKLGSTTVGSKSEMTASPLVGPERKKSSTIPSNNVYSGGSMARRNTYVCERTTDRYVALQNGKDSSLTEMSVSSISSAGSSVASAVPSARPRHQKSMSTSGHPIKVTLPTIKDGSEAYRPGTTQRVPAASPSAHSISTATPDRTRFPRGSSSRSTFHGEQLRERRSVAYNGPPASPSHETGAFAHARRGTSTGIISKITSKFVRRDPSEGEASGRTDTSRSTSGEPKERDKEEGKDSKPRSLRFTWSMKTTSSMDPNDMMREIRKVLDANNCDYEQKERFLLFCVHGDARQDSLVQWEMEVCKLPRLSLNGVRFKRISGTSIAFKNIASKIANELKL
SMILES	remaining activity [%]
O=S(=O)(c1cccc2cnccc12)N1CCCNCC1	98.6
O=C(Nc1cccc(Nc2cc(Nc3cccc(C(F)(F)F)c3)ncn2)c1)C1CC1	102
CCOC(=O)c1c(C)[nH]c(/C=C2\C(=O)Nc3ccccc32)c1C	90.8
Cc1ccc(Nc2nccc(N(C)c3ccc4c(C)n(C)nc4c3)n2)cc1S(N)(=O)=O	99.9
COc1ccc(OC)c2c(=S)c3ccccc3[nH]c12	88.3
COc1cc2ncnc(Nc3ccc(Oc4ccccc4)cc3)c2cc1OC	93.3
O=C(CCCc1ccc(-c2ccccc2F)cc1)Nc1ccc(O)cc1	96.7
CC(C)[C@H](CO)Nc1nc(Nc2cc(N)cc(Cl)c2)c2ncn(C(C)C)c2n1	87.5
N#CC(C#N)=C(N)/C(C#N)=C/c1ccc(O)cc1	111
CO[C@H]1C[C@@H]2CC[C@@H](C)[C@@](O)(O2)C(=O)C(=O)N2CCCC[C@H]2C(=O)O[C@H]([C@H](C)C[C@@H]2CC[C@@H](O)[C@H](OC)C2)CC(=O)[C@H](C)/C=C(\C)[C@@H](O)[C@@H](OC)C(=O)[C@H](C)C[C@H](C)/C=C/C=C/C=C/1C	98.8
OCC(O)CCON=C1C(c2c(O)[nH]c3ccccc23)=Nc2ccccc21 (stereo not drawn)	60.5
Cn1sc(=O)n(Cc2ccccc2)c1=O	107
NCCNc1ncc(C(N)=O)c(Nc2cccc(C(F)(F)F)c2)n1	86.4
COc1ccc(CNC(=O)Nc2ncc([N+](=O)[O-])s2)cc1	106
COc1ccc(C(=O)Nc2sc3c(c2C(N)=O)CCCC3)cc1OC	97.9

Series 3 — read-out: enzyme activity; action: inhibitor; concentration: 1 µM
SMILES: CO[C@@H]1[C@H](N(C)C(=O)c2ccccc2)C[C@H]2O[C@]1(C)n1c3ccccc3c3c4c(c5c6ccccc6n2c5c31)C(=O)NC4
target	inhibition [%]
Myosin-IIIb (MYO3B, Homo sapiens, UniProt Q8WXR4)	0
Dual specificity protein kinase TTK (TTK, Homo sapiens, UniProt P33981)	66
Mitogen-activated protein kinase 6 (MAPK6, Homo sapiens, UniProt Q16659)	0
Serine/threonine-protein kinase RIO3 (RIOK3, Homo sapiens, UniProt O14730)	100

Series 4 — cell line: mouse MPNST tumor cells; technique: high-content immunofluorescence imaging; refers to: nuclear SOX9; concentration: 10 µM; time: 12 h; setting: mean of 2 replicates; reference: DMSO control; reading: higher = more nuclear SOX9
SMILES	nuclear SOX9 intensity
Cc1cnc(-c2cc(N3CCN(C(=O)CCS(C)(=O)=O)CC3)ncc2Cl)c(C)c1	93.9 % of DMSO
COC1CCC(C(=O)c2ccc3nc4c(cc3c2)CCCO4)CC1 (stereo not drawn)	101 % of DMSO
C=CCNc1ncnc2ccc(Br)cc12	116 % of DMSO
NS(=O)(=O)c1cc2c(cc1Cl)NCNS2(=O)=O	109 % of DMSO
O=C1CN2Cc3c(ccc(Cl)c3Cl)N=C2N1	94.2 % of DMSO
COc1ccc(S(=O)(=O)c2cc(OC)ccc2S(=O)(=O)c2ccc([C@H](C)NS(C)(=O)=O)cc2)cc1	162 % of DMSO

For quick reference, copied from above (series 3):
target	inhibition [%]
Myosin-IIIb (MYO3B, Homo sapiens, UniProt Q8WXR4)	0
Dual specificity protein kinase TTK (TTK, Homo sapiens, UniProt P33981)	66
Mitogen-activated protein kinase 6 (MAPK6, Homo sapiens, UniProt Q16659)	0
Serine/threonine-protein kinase RIO3 (RIOK3, Homo sapiens, UniProt O14730)	100
